Earlier results that unrelated publications cite.
Each line is one published result; not all experiments were run side by side. Values joined by “and” are separate records of one study, mostly repeats; a detail may differ. ± gives the spread as reported.
Sequence of UniProt Q9H1R3 (whole entry, looked up): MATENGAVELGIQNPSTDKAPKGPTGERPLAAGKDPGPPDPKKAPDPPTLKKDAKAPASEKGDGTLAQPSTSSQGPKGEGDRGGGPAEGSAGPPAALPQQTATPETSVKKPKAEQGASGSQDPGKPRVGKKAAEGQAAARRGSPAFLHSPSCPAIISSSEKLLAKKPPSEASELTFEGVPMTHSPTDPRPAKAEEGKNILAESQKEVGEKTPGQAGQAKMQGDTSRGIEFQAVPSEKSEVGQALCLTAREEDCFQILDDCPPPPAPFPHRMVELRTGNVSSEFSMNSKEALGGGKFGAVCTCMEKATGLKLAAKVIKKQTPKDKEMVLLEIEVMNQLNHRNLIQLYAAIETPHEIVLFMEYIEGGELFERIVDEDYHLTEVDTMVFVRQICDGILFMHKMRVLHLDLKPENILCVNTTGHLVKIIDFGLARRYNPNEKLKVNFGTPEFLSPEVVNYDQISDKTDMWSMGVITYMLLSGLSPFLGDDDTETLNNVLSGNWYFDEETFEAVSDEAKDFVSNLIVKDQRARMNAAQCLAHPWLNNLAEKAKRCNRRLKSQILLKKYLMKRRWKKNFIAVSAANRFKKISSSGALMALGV

| Compound | target or system | test | system | setting | scale | quantity | result |
| --- | --- | --- | --- | --- | --- | --- | --- |
| Cc1nc(-c2nnc3n2CCN(C(=O)c2ccc(-c4cccs4)cc2)[C@@H]3C)cs1 | Caco-2 | – | – | added: 0.1% BSA | – | efflux ratio | 0.9 |
| [N-]=[N+]=N[C@]1(CO)O[C@@H](n2ccc(N)nc2=O)[C@@H](F)[C@@H]1O | 2209-23 HCV replicon cells | cytotoxicity | – | – | – | CC50 | > 100 µM |
| Nc1cc(C(F)(F)F)c(-c2nc(N3CCOCC3)nc(N3CCOCC3)n2)cn1 | MYLK2 (Homo sapiens, UniProt Q9H1R3) | enzyme activity | – | 10 µM | relative to: untreated | remaining activity | 97% |
| CNC(C)C1CCC(N)C(OC2C(N)CC(N)C(OC3OCC(C)(O)C(NC)C3O)C2O)O1 (stereo not shown) | Escherichia coli | – | clinical isolate RKI-No_524/16 | – | – | MIC | ≤ 0.5 µg/mL |
| CN(C)C/C=C/C(=O)Nc1cc2c(Nc3ccc(F)c(Cl)c3)ncnc2cc1O[C@H]1CCOC1 | Caco-2 | – | – | 3 µM | – | Papp A to B | 2.08 ± 0.56 ×10⁻⁶ cm/s |
| COC(=O)c1ccc2c(c1)NC(=O)/C2=C(\Nc1ccc(N(C)C(=O)CN2CCN(C)CC2)cc1)c1ccccc1 | HepG2 | mitochondrial membrane potential | – | concentration not given, Tox21 | – | mitochondrial toxicity | active |
| CN(C)c1ccc(C(=O)N(CC(=O)NCc2ccccc2)Cc2ccc(C(=O)Nc3ccccc3N)cc2)cc1 | Cal27CisR | cell viability, MTT | – | 72 h | – | IC50 | 2.63 ± 0.31 µM |
| CC1(C)S[C@@H]2[C@H](NC(=O)[C@H](N)c3ccccc3)C(=O)N2[C@H]1C(=O)O | Escherichia coli | – | clinical isolate RKI-No_462/16 | – | – | MIC | > 16 µg/mL |
| COc1cccc2c1C(=O)c1c(O)c3c(c(O)c1C2=O)C[C@@](O)(C(=O)CO)C[C@@H]3O[C@H]1C[C@H](N)[C@H](O)[C@H](C)O1 | COLO 320 ABCB1-resistant colon | cytotoxicity | – | – | – | IC50 | 3.12 µM and 2.96 µM |
| CC#CCn1c(N2CCC[C@@H](N)C2)nc2c1c(=O)n(Cc1nc(C)c3ccccc3n1)c(=O)n2C | HepG2 | mitochondrial membrane potential | – | concentration not given, Tox21 | – | activity outcome | inactive |
| Nc1ccccc1NC(=O)c1ccc(CNC(=O)OCc2cccnc2)cc1 | CAL-27 | cell viability, MTT | – | 72 h | – | IC50 | 2.96 ± 0.17 µM |
| CS(=O)(=O)c1ccc(C(=O)Nc2ccc(Cl)c(-c3ccccn3)c2)c(Cl)c1 | HepG2 | mitochondrial membrane potential | – | concentration not given, Tox21 | – | activity outcome | inactive |
| CCC(CC)COC(=O)[C@H](C)N[P@](=O)(OC[C@H]1O[C@@](C#N)(c2ccc3c(N)ncnn23)[C@H](O)[C@@H]1O)Oc1ccccc1 | Calu-3 | cytotoxicity | – | – | – | CC50 | > 100 µM |

Some of these lines once more:
| Compound | target or system | test | system | setting | scale | quantity | result |
| --- | --- | --- | --- | --- | --- | --- | --- |
| CN(C)C/C=C/C(=O)Nc1cc2c(Nc3ccc(F)c(Cl)c3)ncnc2cc1O[C@H]1CCOC1 | Caco-2 | – | – | 3 µM | – | Papp A to B | 2.08 ± 0.56 ×10⁻⁶ cm/s |
| COC(=O)c1ccc2c(c1)NC(=O)/C2=C(\Nc1ccc(N(C)C(=O)CN2CCN(C)CC2)cc1)c1ccccc1 | HepG2 | mitochondrial membrane potential | – | concentration not given, Tox21 | – | mitochondrial toxicity | active |
